Published values gathered from unrelated publications.
Lines come from different studies, so protocols differ.
Target: Wee1-like protein kinase 2 (WEE2, Homo sapiens, UniProt P0C1S8)

`CCN1CCN(Cc2ccc(C(=O)Nc3ccc(C)c(NCc4cnc5[nH]ccc5c4OC)c3)cc2C(F)(F)F)CC1` has a remaining binding of 72% (binding, competition with immobilised ligand; 1 µM).
The remaining binding of `C=CC(=O)N1CCc2ccc(-n3c(=O)ccc4cnc5ccc(-c6cnn(C)c6)cc5c43)cc21` is reported as 100% (KINOMEscan; 1 µM; reference: DMSO control).
For `O=C(Cc1ccc(OCc2ccccc2)cc1)NC1(C(=O)O)CCN(C(=O)c2ccc(-c3cccc(Cl)c3)cc2)CC1`, “activity vs control” read 108% (enzyme activity, inhibitor; 10 µM).
`COc1cc(Nc2nccc(-c3cnn4nc(OC)ccc34)n2)cc(C(F)(F)F)c1` gave a remaining binding of 98% (binding, competition with immobilised ligand; 1 µM).
`Cc1ccc(-c2c(/C=C(\C#N)C(=O)NC(C)C)n(CCCO)c3ncnc(N)c23)cc1` has a remaining binding of 100% (cell-free assay, competition with immobilised ligand; 1 µM).
For `Cc1cnc2nc1Nc1cccc(c1)COC/C=C/COCc1cc(ccc1OCCN1CCOCC1)N2`, the remaining binding was 49% (binding, competition with immobilised ligand; 0.1 µM).
For `CNC(=O)C1CCN(c2cc(C)c(F)cc2NC(=O)c2ccc(-c3cc(O)ccc3C)c(C)c2)CC1`, the remaining binding was 100% (binding, competition with immobilised ligand; 1 µM).
The remaining binding of `COc1cc(Nc2nc(C)cc(-c3cnn4nc(OC)ccc34)n2)cc(C(F)(F)F)c1` is reported as 100% (binding, competition with immobilised ligand; 1 µM).
The inhibition of `CN1CC[C@@H](COc2cnc(C#N)cc2-c2ccn3nc(NC(=O)C4CC4)cc3c2)C1` is reported as -14% (enzyme activity, inhibitor; 1 µM).
The remaining binding of `CC(C)=CC1OC(C)(C)C2C=C3C(=O)C(Cl)=CC(O)C3C3C(O)C4OC4C(=O)C132` (centres unmarked) is reported as 92% (cell-free assay, competition with immobilised ligand; 10 µM).
For `CNC(=O)C[C@H](Cc1ccc(C#N)cc1)NC(=O)c1cc(-c2ccc(CN[C@H](C)c3ccc(C)cc3)o2)ccc1Cl`, “activity vs control” read 94% (enzyme activity, inhibitor; 1 µM).
`CCN1CCN(Cc2ccc(NC(=O)c3ccc(C)c(NC(=O)c4cncc(-c5cnn(C)c5)c4)c3)cc2C(F)(F)F)CC1` gave a remaining binding of 100% (binding, competition with immobilised ligand; 1 µM).
The Hill slope of `Cc1ccc(C(=O)Nc2ccc(CN3CCN(C)CC3)c(C(F)(F)F)c2)cc1C#Cc1cnc2cccnn12` is reported as 0.0532 (target engagement, NanoBRET; human cells).
`Nc1ncc2c(n1)-c1c([nH]c3ccc(C4=CCOCC4)cc13)CCC2` has a remaining binding of 100% (binding, competition with immobilised ligand; 1 µM).
The remaining binding of `CNC1C[S+]2CC[S+]3CC[S+](C1)[Ru-4]321([N]=C=S)[n]2c3ccc(OC)cc3c3c4c(c5cc(F)c[n+]1c5c32)C(=O)NC4=O` (centres unmarked) is reported as 91% (KinomeScan; 0.1 µM; reference: untreated).
The remaining binding of `COc1c(Cl)cccc1Nc1c(-c2ccncc2C#C[C@@]2(C)CCCN2C(=O)/C=C/CN(C)C)[nH]c2c1C(=O)NCC2` is reported as 100% (binding, competition with immobilised ligand; 3 µM).
With `C=CC(=O)N1CCCC(n2c(=O)c3ncccc3n(Cc3ccc(Oc4ccccc4)cc3)c2=O)C1` (centres unmarked) the remaining binding was 100% (cell-free assay, competition with immobilised ligand; 1 µM).

Some of these lines once more:
`Nc1ncc2c(n1)-c1c([nH]c3ccc(C4=CCOCC4)cc13)CCC2` has a remaining binding of 100% (binding, competition with immobilised ligand; 1 µM).
